Results from different studies.
Each line is one published result; not all experiments were run side by side. ± marks the error that the study gave.

| SMILES | assay | test system | setting | scale | endpoint | result |
| --- | --- | --- | --- | --- | --- | --- |
| CN(C)C(CNC(=O)Nc1cc(C(F)(F)F)ccc1N1CCOCC1)c1ccncc1 (stereo not shown) |  | mouse, serum | intraperitoneal, 120 mg/kg single dose |  | serum magnesium | 2.6 mg/dL |
| CCN(Cc1ccccc1)C(=O)CCc1nc(CN2CCN(C(=O)Cc3ccc(OC)c(OC)c3)CC2)no1 |  | rat, kidney | intravenous, 1 mg/kg, 5 min, single dose |  | concentration | < 1.8 ng/g |
| CCCC[C@H]1C(=O)N(C)[C@@H](CCCC)C(=O)N[C@@H](CCCNC(=O)CN2CCN(CC(=O)O)CCN(CC(=O)O)CCN(CC(=O)O)CC2)C(=O)N[C@H](C(=O)NCC(N)=O)CSCC(=O)N[C@@H](Cc2ccc(O)cc2)C(=O)N(C)[C@@H](C)C(=O)N[C@@H](CC(N)=O)C(=O)N2CCC[C@H]2C(=O)N[C@@H](Cc2c[nH]cn2)C(=O)N[C@@H](CC(C)C)C(=O)N(C)CC(=O)N[C@@H](Cc2c[nH]c3ccccc23)C(=O)N[C@@H](CO)C(=O)N[C@@H](Cc2c[nH]c3ccccc23)C(=O)N1C [gallium-68 labelled] | static PET | NOD/SCID mice, CHO-hPD-L1 xenograft, CHO-hPD-L1 tumour | intravenous, 1 h post injection, before PBS treatment |  | tumour to muscle ratio | 6.82 ± 0.65 |
| COc1cc(NC(=O)C(=O)c2c(C)n(Cc3ccc(Cl)cc3)c3ccc(C)cc23)ccn1 |  | female cynomolgus monkey, plasma | intravenous, 1 mg/kg |  | Vz | 26 L/kg |
| CCN(CCCCOc1ccc(CCC(=O)N2CCC(Cc3ccccc3)CC2)cc1OC)Cc1ccccc1 |  | Sprague-Dawley rat, faeces and urine | oral, 25 mg/kg, 48 h | relative to: dose | cumulative excretion | 1.46% |
| CCCCCCCCCCCCC(=O)O.O=C1CCCC2C3CCCN4CCCC(CN12)C34 (stereo not shown) | conductometry | water | 303.15 K |  | limiting molar conductivity | 47.9 ± 0.09 S cm²/mol |
| CCO[C@H]1[C@H](O)[C@@H](N)[C@@H](O[C@H]2[C@H](O[C@@H]3O[C@H](CO)[C@@H](O[C@H]4O[C@@H](CN)[C@@H](O)[C@H](O)[C@H]4N)[C@H]3O)[C@@H](O)[C@H](N)C[C@@H]2N)O[C@@H]1CO |  | guinea pig | chronic ototoxicity study |  | tolerability | not toxic |
| CC[C@H](C)C(=O)N1CCC(NC(=O)Nc2ccc(OC(F)(F)F)c(F)c2)CC1 |  | healthy volunteers | oral, 16 mg single dose |  | subjects with related TEAE | 0% |
| CC(C)[C@H]1NC(=O)C[C@H]2/C=C/CCSSC[C@@H](NC1=O)C(=O)N[C@H](Cc1cccc3ccccc13)C(=O)NCC(=O)O2 |  | nude mouse, blood | intraperitoneal, 4 mg/kg |  | Tmax | 15 min |
| [3H]c1sc(C)nc1C=C(C)C1CC2C(CCCC(C)C(O)C(C)C(=O)C(C)(C)C(O)CC(=O)O1)N2CCO (stereo not shown) |  | CD2F1 mice, M109 tumour (FR−) | intravenous, 2.2 nmol/kg, 2 h |  | tumour concentration | 250 ± 20 ng/g |
